Assay results collected from several papers.
Each numbered part is a random draw from the data of one study; scales do not carry over between parts. Numbers after ± are the reported error. In brackets after ≈: the same amount, converted by molar mass.
Sequence of UniProt Q00987 (whole entry, looked up): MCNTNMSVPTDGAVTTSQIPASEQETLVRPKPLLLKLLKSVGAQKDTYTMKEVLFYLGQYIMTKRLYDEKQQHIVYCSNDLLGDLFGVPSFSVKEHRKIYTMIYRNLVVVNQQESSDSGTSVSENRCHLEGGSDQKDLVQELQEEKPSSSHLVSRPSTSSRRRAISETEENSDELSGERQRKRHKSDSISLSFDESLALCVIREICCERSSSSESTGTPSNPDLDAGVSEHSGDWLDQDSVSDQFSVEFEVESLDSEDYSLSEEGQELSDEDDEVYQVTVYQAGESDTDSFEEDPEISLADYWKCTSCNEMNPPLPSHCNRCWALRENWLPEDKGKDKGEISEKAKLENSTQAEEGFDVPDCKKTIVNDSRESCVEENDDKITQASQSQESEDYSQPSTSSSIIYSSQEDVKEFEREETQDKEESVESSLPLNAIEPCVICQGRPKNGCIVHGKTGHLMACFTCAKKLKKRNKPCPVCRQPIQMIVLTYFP
Sequence of UniProt P21397 (whole entry, looked up): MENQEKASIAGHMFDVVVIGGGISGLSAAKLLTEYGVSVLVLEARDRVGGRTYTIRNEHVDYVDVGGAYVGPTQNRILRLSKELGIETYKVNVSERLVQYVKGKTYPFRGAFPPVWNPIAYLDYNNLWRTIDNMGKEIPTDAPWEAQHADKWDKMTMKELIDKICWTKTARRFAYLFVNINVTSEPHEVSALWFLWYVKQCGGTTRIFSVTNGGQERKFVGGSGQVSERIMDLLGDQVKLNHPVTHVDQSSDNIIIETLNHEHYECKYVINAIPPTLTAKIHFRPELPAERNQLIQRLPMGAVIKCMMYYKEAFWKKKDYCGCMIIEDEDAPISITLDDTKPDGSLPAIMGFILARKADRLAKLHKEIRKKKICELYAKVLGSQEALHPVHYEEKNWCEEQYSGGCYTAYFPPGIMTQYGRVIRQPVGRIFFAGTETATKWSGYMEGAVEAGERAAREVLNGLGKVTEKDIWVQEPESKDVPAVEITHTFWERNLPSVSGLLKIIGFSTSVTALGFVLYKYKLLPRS

Set 1
SMILES: CC[C@H](C)[C@H](NC(=O)[C@H](CC(C)C)NC(=O)[C@H](CCCCN)NC(=O)[C@@H](NC(=O)[C@H](C)NC(=O)[C@H](CCC(=O)O)NC(=O)[C@H](Cc1c[nH]cn1)NC(=O)[C@@H](NC(=O)[C@H](CCCCN)NC(=O)[C@H](CCC(N)=O)NC(=O)[C@H](Cc1ccccc1)NC(=O)[C@@H](NC(=O)[C@H](CCCCN)NC(=O)[C@H](CCCCN)NC(=O)[C@H](CC(C)C)NC(=O)[C@H](C)NC(=O)[C@H](CC(N)=O)NC(=O)[C@@H](N)CC(C)C)C(C)C)[C@@H](C)CC)[C@@H](C)CC)C(N)=O
Time: 18 h
Temperature: 37 °C
For Acinetobacter baumannii; broth microdilution; ATCC 19606: MIC read 4 µM (≈ 8.42 µg/mL).
It gave 4 µM (≈ 8.42 µg/mL) for MIC (Staphylococcus aureus; USA300, resistant).
It gave 2 µM (≈ 4.21 µg/mL) for MIC (Escherichia coli; broth microdilution; ATCC 25922).
For Listeria monocytogenes; broth microdilution; KCTC 3710: MIC read 8 µM (≈ 16.8 µg/mL).
The MIC was 2 µM (≈ 4.21 µg/mL) (Escherichia coli; CCARM 1238, resistant).

Single results of other studies
For `CSCC[C@@H]1NC(=O)[C@@H](Cc2ccccc2)NC(=O)[C@H](CC(=O)O)NC(=O)CNC(=O)[C@H](CCCNC(=N)N)NC1=O`, the IC50 was > 10 µM (U-87 MG; 48 h, 10% FBS).
`NC1CC1c1ccc(NC(=O)Cc2ccc3ccccc3c2)cc1` (stereo not shown) has an inhibition of 89% (Amine oxidase [flavin-containing] A (MAOA, Homo sapiens, UniProt P21397); enzyme activity, inhibitor, HRP-coupled; 100 µM, together with: kynuramine substrate).
With `CC(C)(C)[C@H]1CC[C@H](Oc2cc([18F])c3ccccc3c2CN2CCC(C(=O)O)CC2)CC1` the parent radiotracer was ~100% (macaque, plasma; 5 min; reference: radioactivity).
`NC1CC1c1ccc(NC(=O)C(Cc2ccc3ccccc3c2)NC(=O)OCc2ccccc2)cc1` (stereo not shown) has an IC50 of 23.2 ± 4.2 µM (NB-4 APL cells).
The Kd of `CC[C@H](C)[C@@H]1NC(=O)[C@@H]2CSSC[C@@H]3NC(=O)[C@H](C(C)C)NC(=O)CNC(=O)CNC(=O)[C@H](C)NC(=O)[C@H](CO)NC(=O)[C@H](CC(C)C)NC(=O)[C@H](CC(C)C)NC(=O)[C@H](CC(N)=O)NC(=O)[C@H](Cc4c[nH]c5ccccc45)NC(=O)[C@H](Cc4ccc(O)cc4)NC(=O)[C@H](CCC(=O)O)NC(=O)[C@H](C)NC(=O)[C@H](Cc4ccccc4)NC(=O)[C@H](CO)NC(=O)[C@H]([C@@H](C)O)NC(=O)[C@@H]4CCCN4C(=O)[C@H](C)NC(=O)[C@H](CCCNC(=N)N)NC(=O)[C@H](CO)NC(=O)[C@H](C)NC(=O)CNC(=O)[C@H](CO)NC(=O)CNC(=O)[C@H](CO)NC(=O)CNC(=O)[C@@H]4CSSC[C@H](NC(=O)[C@H](CC(=O)O)NC(=O)[C@H](CO)NC(=O)[C@H](CC(=O)O)NC(=O)[C@H](CCCNC(=N)N)NC(=O)[C@H](CCCNC(=N)N)NC(=O)[C@H](CSSC[C@H](NC1=O)C(=O)N[C@@H](CCCNC(=N)N)C(=O)NCC(=O)N[C@@H](CC(N)=O)C(=O)NCC(=O)N[C@@H](Cc1ccc(O)cc1)C(=O)N4)NC(=O)[C@H](CCCNC(=N)N)NC(=O)[C@H](CCC(N)=O)NC(=O)[C@H](CC(C)C)NC(=O)[C@H]([C@@H](C)CC)NC(=O)[C@H](CCCCN)NC(=O)[C@@H]1CCCN1C3=O)C(=O)N1CCC[C@H]1C(=O)NCC(=O)N[C@@H](C)C(=O)N2` is reported as 0.0023 ± 0.0001 µM (E3 ubiquitin-protein ligase Mdm2, p53-binding domain (MDM2, Homo sapiens, UniProt Q00987); binding, fluorescence polarization; FITC-labelled derivative).

For quick reference, copied from above (set 1):
For Listeria monocytogenes; broth microdilution; KCTC 3710: MIC read 8 µM (≈ 16.8 µg/mL).
